{"data": "Results gathered from unrelated publications", "note": "Numbered parts are unrelated; each lists some results of a single study."}
{"data": "Sample 1", "target": "Sal-like protein 4, full length isoform B (SALL4, Homo sapiens, UniProt Q9UJQ4-2, residues 1-616)", "technique": "universal PBM", "form": "double-stranded DNA, one strand shown", "sample": "in vitro", "tested at": "not given", "setting": "8-mer, flanks averaged, mean of replicates", "reading": "higher = stronger binding", "Construct (chain)": "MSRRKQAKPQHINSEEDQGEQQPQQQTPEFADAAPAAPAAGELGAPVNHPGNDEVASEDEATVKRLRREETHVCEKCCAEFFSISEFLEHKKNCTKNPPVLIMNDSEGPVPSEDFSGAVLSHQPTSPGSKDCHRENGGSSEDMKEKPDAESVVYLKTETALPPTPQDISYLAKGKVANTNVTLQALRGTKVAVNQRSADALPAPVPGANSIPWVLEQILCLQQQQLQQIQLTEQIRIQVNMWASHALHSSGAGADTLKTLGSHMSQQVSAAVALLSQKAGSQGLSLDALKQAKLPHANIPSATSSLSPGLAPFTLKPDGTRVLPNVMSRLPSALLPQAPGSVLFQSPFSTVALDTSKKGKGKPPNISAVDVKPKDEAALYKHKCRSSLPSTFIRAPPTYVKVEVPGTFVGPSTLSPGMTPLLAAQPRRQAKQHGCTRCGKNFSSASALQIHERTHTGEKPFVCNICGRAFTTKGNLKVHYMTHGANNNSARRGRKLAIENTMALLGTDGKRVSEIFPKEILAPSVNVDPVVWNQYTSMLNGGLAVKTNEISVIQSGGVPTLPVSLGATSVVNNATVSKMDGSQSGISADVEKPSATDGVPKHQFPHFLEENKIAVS"}
{"Strand": "CTAGTGCA", "E-score": 0.156}
{"Strand": "GTGTTTGA", "E-score": 0.117}
{"Strand": "CCAGGCAG", "E-score": -0.253}
{"Strand": "ACTTGTAC", "E-score": 0.0412}
{"Strand": "AACAGATC", "E-score": 0.00946}
{"Strand": "TAAATCTA", "E-score": 0.231}
{"Strand": "TAGCTTCA", "E-score": 0.111}
{"Strand": "ATCCGTAC", "E-score": 0.177}
{"Strand": "CATGCGAG", "E-score": -0.0898}
{"Strand": "AAGTTGTA", "E-score": 0.195}
{"Strand": "CACTCATA", "E-score": 0.253}
{"Strand": "CGAACGGA", "E-score": -0.105}
{"Strand": "ACTGCACT", "E-score": -0.021}
{"Strand": "GTCTAAGA", "E-score": -0.136}
{"Strand": "TCGGGCCA", "E-score": -0.33}
{"Strand": "AAAAGAAT", "E-score": 0.233}
{"Strand": "CGACACCA", "E-score": -0.144}
{"Strand": "CAGCTAAG", "E-score": -0.187}
{"Strand": "CTGCTGTC", "E-score": -0.269}
{"Strand": "CTGCCCTC", "E-score": -0.268}
{"data": "Sample 2", "target": "Centromere-binding protein 1, full length, His-tagged (CBF1, Saccharomyces cerevisiae, UniProt P17106, residues 1-351)", "technique": "competition protein-binding microarray", "form": "double-stranded DNA, one strand shown", "sample": "in vitro", "tested at": "2 µM", "setting": "whole 60-bp probe, lowest competitor level", "with": "Pho4 competitor, 0.05 µM", "reading": "higher = stronger binding", "constant ends, left off below": "… GTCTTGATTCGCTTGACGCTGCTG", "chain of UniProt P17106 (whole entry, looked up)": "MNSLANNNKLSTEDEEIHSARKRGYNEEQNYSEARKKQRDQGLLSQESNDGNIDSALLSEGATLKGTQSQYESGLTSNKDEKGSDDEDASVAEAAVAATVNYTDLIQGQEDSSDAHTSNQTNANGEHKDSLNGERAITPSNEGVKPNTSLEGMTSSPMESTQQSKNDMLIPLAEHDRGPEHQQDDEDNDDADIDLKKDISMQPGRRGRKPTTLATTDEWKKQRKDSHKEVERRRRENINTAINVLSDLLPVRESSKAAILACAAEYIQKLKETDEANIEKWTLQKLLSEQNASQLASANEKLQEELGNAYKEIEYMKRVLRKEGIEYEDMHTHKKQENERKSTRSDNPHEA"}
{"Strand": "TCTCAAGATCTGTTCCTCGTGGCCGAATGGTTACGG", "fluorescence intensity": "71.4 a.u."}
{"Strand": "AAGCAAGAACGAAAGCACGTTCTTGAAGATCTGCAT", "fluorescence intensity": "111 a.u."}
{"Strand": "TGCGCAACAACTTGCACGGTGGGTGTATGTCTAGAA", "fluorescence intensity": "69.4 a.u."}
{"Strand": "CGGGGTTAAGTTTGTCACGACACTTGCTTGCAGCAG", "fluorescence intensity": "197 a.u."}
{"Strand": "AAAGCGGTAATTTGGTGGGTGGGTGCAGATATCTAT", "fluorescence intensity": "83.2 a.u."}
{"Strand": "GTCTTGTCTCATTTTCACGTGGGGTTCCCCACTTCA", "fluorescence intensity": "521 a.u."}
{"Strand": "AGTGCAGTGGAAAAGCACGCTTACTCTACGGATGAG", "fluorescence intensity": "58.3 a.u."}
{"Strand": "AAAAAAAAATGTGAAAACGTGATGGCATTTTTTACA", "fluorescence intensity": "573 a.u."}
{"Strand": "CTTCTGTAAATTTTTCACGTGGTATGACGCGCCCCG", "fluorescence intensity": "1140 a.u."}
{"Strand": "CGGGGTTAAGTTTGCTTGGTGGGTGGCTTGCAGCAG", "fluorescence intensity": "63.9 a.u."}
{"Strand": "CAAATTTGCCAGCGTCACAATGTCGTTTGCCTCTTG", "fluorescence intensity": "77.3 a.u."}
{"Strand": "CTTTCCCGATCTTGAGCAGTGGGTGTAGCACATTTG", "fluorescence intensity": "68.7 a.u."}
{"Strand": "GAAGTCCTTATTCCGCACGTTGCTACCGCCGGCTTG", "fluorescence intensity": "84.3 a.u."}
{"Strand": "TCAAAATTGGCATCGCACGTGAAGTTACATATATCC", "fluorescence intensity": "751 a.u."}
{"Strand": "AAATTACTAAGTTGCTGTGTGGGTGACGCCGTATGA", "fluorescence intensity": "65.5 a.u."}
{"Strand": "CGTCCTAGTGATTGTCGGGTGGGTGCCATGAGGAAG", "fluorescence intensity": "79.8 a.u."}
{"data": "Sample 3", "target": "RNA binding protein fox-1 homolog 2, RRM domain, GST-SBP tag (RBFOX2, Homo sapiens, UniProt O43251-10, residues 100-194)", "technique": "RNA Bind-n-Seq", "form": "RNA", "sample": "in vitro", "tested at": "365 nM", "setting": "natural RNA segment, single round, ends assumed", "relative to": "no-protein control", "reading": "higher = stronger binding", "constant ends, left off below": "GGGAGUUCUACAGUCCGACGAUC … UGGAAUUCUCGGGUGCCAA", "Construct (chain)": "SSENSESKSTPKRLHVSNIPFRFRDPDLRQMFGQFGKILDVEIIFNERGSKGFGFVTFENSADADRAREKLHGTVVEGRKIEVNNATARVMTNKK"}
{"Strand": "CACUCAUGUCAAUCAUAUCUAUGAGACAAAUGUCUCCGAUGCUCUUCUGCGUAAAUUAAAUUGUGUACUGAAGGGAAAAGUUUGAUCAUACCAAACAUUUCCUAAACUCU", "RBNS enrichment (R)": 0.309}
{"Strand": "CCCUCAAAUGAGAAGGCCUUGGGAGAAGGCCUCAUCUCUGGCUGUUUCAUGAGCAACUCAUUCCUAGAGUUCAUUGUUUGCAUGGGUUUCUCACAAGCGUCCUUCCUCAU", "RBNS enrichment (R)": 0.77}
{"Strand": "CUAACGGGACUGGUUUUCAAAGCAGUUAUCUUGGGAAACUGUUUAUUCCAGCGAUGUGACUUUUUUCAGAAUAUUUCUUGGAAUCAUAUUCAGAGUCUGGGGCUGUGUGU", "RBNS enrichment (R)": 0.407}
{"Strand": "UGGGGAUACAGCACCUGCUUCACCGCUGCCUCGUGUGUGUGAAGACCAAGGAGACCCCCAAGGGUACCACUGCCUGAGGACAGCAGAGAGAACCUGCCUCCCUCCCAGAA", "RBNS enrichment (R)": 0.496}
{"Strand": "AAGGAAAUAUCAUUUAUUUAAGCAGCCUAUCAGUGAUUGCCAUUAGACUGUUGAAUACUGUUACUUUUAUAUAGAACCCAAGGAAUGCCUUCCUGUCAUAUUUUAGCCAA", "RBNS enrichment (R)": 0.869}
{"Strand": "UAUACAUAUAUACGUACAUAUGCUGUCCAAAUAUAUUUGUAUAUAUUUGUAUAGCAUUUUUACACCUUUAUUGAGUAAUCUGGUUUCGAAAGGAGGUGAGAGUUUAGUCC", "RBNS enrichment (R)": 0.409}
{"Strand": "CCCUGUGUACCCAUUAACAAAGCCAACUAUGUCCUCUCUCCAGAAUGCCCACCCCUACUGUGGCCACAUCAUGCCCAGUGUCCCCCCAGGUAGGAGCAGAUACAGUGCAG", "RBNS enrichment (R)": 1.17}
{"Strand": "AAGCAGGAAAACCAAUCGUCUUCUUGACAGGGUGGCAUUUGGCCUUGAACAAAAUCAGGUCCCCUGGGGUGGAAGUCACAGCCAAGCGCCUUUUUAAGACUUGAGUGGUG", "RBNS enrichment (R)": 0.303}
{"Strand": "CCAACUCAGAGCCUGCUGAGCCCAUGCCCAGCCGCAGCAUGCCAGCUGAGCCCCCGGCCUCCCCAGGAACAUGCACGUUCACCCCGCUUCCUCGUGGGUGGCUUUUUUUU", "RBNS enrichment (R)": 30.7}
{"Strand": "AUCCCCACCCUGACUGAGACCUGUGAAGAUGCAGAGUGGCAGGGAAGGUCACAGAGCUCCACCACCCAUGUCCUGUGUCAACAACCCGGUCCCUGUGGCACCUGUAACUG", "RBNS enrichment (R)": 0.511}
{"Strand": "AAGUGGAUCUUAUCAUUACUGUGAGUGUGAGACACACACACAUACACAACACACUGUAUGUGCAUACAUGAAACACAAACAGCUUUUUACUGAACAGAAUUAUAGACAUU", "RBNS enrichment (R)": 0.438}
{"Strand": "ACAGCAGGGCCACCUUGAUGCAGGCUGGAAUGUUAUCCCUGGGGUGUGCUUGGACCCCACCUGCUUUCUUUCUCUCCUGCCCCUCCCCUACUCUCACUGUAAUUUAUGGA", "RBNS enrichment (R)": 1.28}
{"data": "Sample 4", "target": "Interferon regulatory factor 5, full length, phosphomimetic (IRF5, Homo sapiens, UniProt Q13568-2, residues 1-514, S451D/S453D/S456D/S462D)", "technique": "protein-binding microarray", "form": "double-stranded DNA, one strand shown", "sample": "in vitro", "tested at": "940 nM top", "setting": "60-bp whole probe", "with": "salmon DNA 0.4 mg/ml", "relative to": "random background probes", "reading": "higher = stronger binding", "constant ends, left off below": "GCCTAGCAC … GTCTTGATTCGCTTGACGCTGCTG"}
{"Strand": "GCCGGACTGGGACTGGGGACGTGCTAG", "fitted relative affinity": "-0.7 z-score"}
{"Strand": "TTGGGTTTCGGACTGGGTTAGTGCTAG", "fitted relative affinity": "6.08 z-score"}
{"Strand": "GACGATATCAGTATGGAGACGTGCTAG", "fitted relative affinity": "-0.123 z-score"}
{"Strand": "GACGATTTCGGGTAGCGAGACGTGCTA", "fitted relative affinity": "0.396 z-score"}
{"Strand": "TTAGATTTCCTTTCCCTTTAGTGCTAG", "fitted relative affinity": "1.32 z-score"}
{"Strand": "TTAGGTATCGGGTGTCGGTTAGTGCTA", "fitted relative affinity": "5.99 z-score"}
{"Strand": "CACGGTTTCGGTTCCGGGACGTGCTAG", "fitted relative affinity": "13 z-score"}
{"Strand": "TTAGGGATCGGTTTCGGTTAGTGCTAG", "fitted relative affinity": "8.53 z-score"}
{"Strand": "GACGATATCGGGACTGGCGACGTGCTA", "fitted relative affinity": "-0.377 z-score"}
{"Strand": "GTAGGTATCGACTATCGGTTAGTGCTA", "fitted relative affinity": "5.41 z-score"}
{"Strand": "AACGGTATCCTTCTCCTGACGTGCTAG", "fitted relative affinity": "0.898 z-score"}
{"Strand": "TTACCCCATCCCCCTTTTCTGTGCTAG", "fitted relative affinity": "0.752 z-score"}
{"Strand": "CTTTTTTTTTTTTTCTGATCGTGCTAG", "fitted relative affinity": "0.878 z-score"}
{"Strand": "GTGAATATATGTATATATGTGTGCTAG", "fitted relative affinity": "-0.238 z-score"}
{"Strand": "GTGACAGTTTTATTTTAGTTGGTGCTA", "fitted relative affinity": "0.614 z-score"}
{"Strand": "TTAGGTTTCGACACTGGGTGAGTGCTA", "fitted relative affinity": "7.85 z-score"}
{"Strand": "GACGATCTCAGTCTCGAGACGTGCTAG", "fitted relative affinity": "1.19 z-score"}
{"Strand": "TCACATGTGCCTTTATAACTGTGCTAG", "fitted relative affinity": "0.352 z-score"}
{"Strand": "TTAGGACTGGACGATCGGTTAGTGCTA", "fitted relative affinity": "-0.499 z-score"}
{"Strand": "TTAGGTATGCTTCTCCTTTAGTGCTAG", "fitted relative affinity": "-0.215 z-score"}
{"Strand": "GACGATATCAGCTTCGAGACGTGCTAG", "fitted relative affinity": "0.0303 z-score"}
{"Strand": "GACGGTATCCTTCTCATGACGTGCTAG", "fitted relative affinity": "0.758 z-score"}
{"Strand": "GACGGTTTCGGGACTGGGGATGTGCTA", "fitted relative affinity": "6.58 z-score"}
{"Strand": "CCAGGGCTGCCAGCCTCCTCGTGCTAG", "fitted relative affinity": "-0.683 z-score"}
{"Strand": "TTAGGTTTAGACTATCGGTTAGTGCTA", "fitted relative affinity": "0.303 z-score"}
{"note": "A few entries again (sample 4):"}
{"Strand": "GTGAATATATGTATATATGTGTGCTAG", "fitted relative affinity": "-0.238 z-score"}
{"Strand": "GTGACAGTTTTATTTTAGTTGGTGCTA", "fitted relative affinity": "0.614 z-score"}
{"Strand": "TTAGGTTTCGACACTGGGTGAGTGCTA", "fitted relative affinity": "7.85 z-score"}
{"Strand": "GACGATCTCAGTCTCGAGACGTGCTAG", "fitted relative affinity": "1.19 z-score"}
{"Strand": "TCACATGTGCCTTTATAACTGTGCTAG", "fitted relative affinity": "0.352 z-score"}
